Experimental data of several laboratories.
Every numbered part comes from another study and shows a few of its results, in no order. Substitutions count along the parent as printed.

Series 1 — target: CCNA1, cyclin fold, Cln2 fusion (human); technique: yeast growth competition, sequencing; matrix: yeast; setting: weak parent motif; relative to: not given; reading: higher = stronger binding; measurement: normalised enrichment score
Starting sequence: CDAN1 docking peptide (human); RGARSQLFPPTEA; partner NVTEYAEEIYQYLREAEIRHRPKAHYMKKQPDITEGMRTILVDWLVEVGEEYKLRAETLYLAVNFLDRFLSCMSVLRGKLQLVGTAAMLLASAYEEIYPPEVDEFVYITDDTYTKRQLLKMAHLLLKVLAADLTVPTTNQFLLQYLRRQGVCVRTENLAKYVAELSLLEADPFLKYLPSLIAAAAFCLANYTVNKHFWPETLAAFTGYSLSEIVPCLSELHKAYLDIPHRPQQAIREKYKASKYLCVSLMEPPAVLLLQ
Change = L7A; value = -0.0563
Change = R1A; value = 0.299
Change = G2A; value = 0.163
Change = P9A; value = 0.548
Change = S5A; value = 0.709

Series 2 — technique: RNA Bind-n-Seq; form: RNA; matrix: in vitro; concentration: 365 nM; relative to: no-protein control; reading: higher = stronger binding; measurement: RBNS enrichment (R)
Target: RNA binding protein fox-1 homolog 2, RRM domain, GST-SBP tag (RBFOX2, Homo sapiens, UniProt O43251-10, residues 100-194)
Setting: natural RNA segment, single round, ends assumed
Target sequence (chain): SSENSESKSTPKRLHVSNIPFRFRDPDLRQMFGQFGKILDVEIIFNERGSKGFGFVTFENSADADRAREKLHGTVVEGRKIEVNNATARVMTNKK
Sequence = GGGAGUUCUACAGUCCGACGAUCUUUUUGGACGUUGGAAGAGCUCAGAAGCCCAUCUUCUGCAGUUACCAAGGAAGAAAGAUCGUUCUGAAGUUACCCUCUGUCAUACAUUUGGUCUCUUUGACUUGGUUUCUUGGAAUUCUCGGGUGCCAA; value = 0.299
Sequence = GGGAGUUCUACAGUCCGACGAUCCAUUCGAAUGGGAGAAAAAGCAAAUCGCACAAUGACAUAUUUUGAGUAAUAACCGUAUUUUUCACAGGGUGACAAAUUGGGCCAAUAAAUCUGCCAUCUUUGAACUCAUCUGGAAUUCUCGGGUGCCAA; value = 0.374
Sequence = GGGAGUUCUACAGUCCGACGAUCAUUAUCCUAUUUCAAGUUUAUGGUAAGUCACAGAUGUUCUCCCAGUAGCAGGACCUUGUGCUAACCACAAACUGCACCUUCUCAGUACUCACAACCCCGAUCUGCAAGGUUGGAAUUCUCGGGUGCCAA; value = 0.425
Sequence = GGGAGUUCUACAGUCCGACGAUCAGUCAGCACAGGCCUAGCAAGGCCCUGACAGCCACAUCGACUGAAGAUUGUCAAGGCGAUAGAAAACCACUGCCAGAAAGACCUGUAAGAAGGGAUUUGUUCUAUACGAGUGGAAUUCUCGGGUGCCAA; value = 0.332
Sequence = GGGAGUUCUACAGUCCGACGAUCAGUCAUUCUGCUUCUCAUCUAAAUAUUUCCAUAUUCUGUAUUAGGAGAAAAUUACCCUCCCAGCACCAGCCCCCCUCUCAAACCCCCAACCCAAAACCAAGCAUUUUGGAUGGAAUUCUCGGGUGCCAA; value = 0.393
Sequence = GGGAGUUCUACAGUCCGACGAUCUUCACAGGGAUCAUUCUCUUCUCUCCUUUUUAAUGAAGUCCAAAAUCACAGGAAGUGAAGAACAUUUCAUUUAUCUGUUCUAAAAUUUCUGCUGUCAGAGUGUCUAAGAGUGGAAUUCUCGGGUGCCAA; value = 0.328
Sequence = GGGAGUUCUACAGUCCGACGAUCACUCUCUUUUCUUGUUCUUUUUGUGCUCAAGACCCACUGUUAUAGGAAUAAAGUUUAUGAGCUCAAGAACAUAACUGCUUUUUUUAGGUAUCUGUGUGUUCAUUAUCUGUUGGAAUUCUCGGGUGCCAA; value = 0.382
Sequence = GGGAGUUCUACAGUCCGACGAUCAGGGGUGUAGGUUCGAGGAAGGAGAACAUCAUUGGAAUGGAGGAGAGUGCUGCAGAGUCUAUGUCUGCUGACCACCUGUGCUACCACUUAACAAUGAGCAUAGCUGGUCUUGGAAUUCUCGGGUGCCAA; value = 0.775

Series 3 — technique: DHFR PCA, deep sequencing; matrix: yeast; added: (+)-ABA 0.032 µM; relative to: wild-type fitted maximum; reading: higher = stronger binding; measurement: relative binding score
Target: ABI1, truncated, D143A, DHFR fusion (Arabidopsis thaliana)
Setting: methotrexate growth selection, single substitutions
Starting sequence: PYL1, truncated, DHFR fusion (Arabidopsis thaliana); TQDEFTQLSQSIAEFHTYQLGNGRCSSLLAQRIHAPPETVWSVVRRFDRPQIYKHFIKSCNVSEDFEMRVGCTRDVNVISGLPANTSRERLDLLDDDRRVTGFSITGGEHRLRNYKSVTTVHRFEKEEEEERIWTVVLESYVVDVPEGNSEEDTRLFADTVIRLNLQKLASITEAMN
Change = N177R; value = 16.1%
Change = L166S; value = -2.66%
Change = I79V; value = 44.2%
Change = T39K; value = 10.7%
Change = E109L; value = -0.859%
Change = L156C; value = 13.3%
Change = L8I; value = -9.78%

Single results of other studies
Molecule = PhoQ, residues 284 288 289 292 302 303 AGGCYF; target = PhoP, residues 12 14 15 18 19 IQSYL (Escherichia coli, UniProt P23836); assay = Sort-seq, refers to: YFP reporter; test system = E. coli; conditions = PhoQ-PhoP variant library, added: 10 µM Mg2+; scale = relative to: high Mg2+ state, higher = stronger signaling; measurement = fold induction; value = 14.6

Repeated from above (series 2):
Sequence = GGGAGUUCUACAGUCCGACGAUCAGUCAGCACAGGCCUAGCAAGGCCCUGACAGCCACAUCGACUGAAGAUUGUCAAGGCGAUAGAAAACCACUGCCAGAAAGACCUGUAAGAAGGGAUUUGUUCUAUACGAGUGGAAUUCUCGGGUGCCAA; value = 0.332
Sequence = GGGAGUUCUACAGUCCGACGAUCAGUCAUUCUGCUUCUCAUCUAAAUAUUUCCAUAUUCUGUAUUAGGAGAAAAUUACCCUCCCAGCACCAGCCCCCCUCUCAAACCCCCAACCCAAAACCAAGCAUUUUGGAUGGAAUUCUCGGGUGCCAA; value = 0.393
